Measurements gathered from unrelated publications.
Lines come from different studies, so protocols differ. Several values in a cell are separate wells, animals, samples, runs or records. Numbers after ± are the reported error.
ULK2: Serine/threonine-protein kinase ULK2 (ULK2, Homo sapiens, UniProt Q8IYT8)
Chain of UniProt Q8IYT8 (whole entry, looked up): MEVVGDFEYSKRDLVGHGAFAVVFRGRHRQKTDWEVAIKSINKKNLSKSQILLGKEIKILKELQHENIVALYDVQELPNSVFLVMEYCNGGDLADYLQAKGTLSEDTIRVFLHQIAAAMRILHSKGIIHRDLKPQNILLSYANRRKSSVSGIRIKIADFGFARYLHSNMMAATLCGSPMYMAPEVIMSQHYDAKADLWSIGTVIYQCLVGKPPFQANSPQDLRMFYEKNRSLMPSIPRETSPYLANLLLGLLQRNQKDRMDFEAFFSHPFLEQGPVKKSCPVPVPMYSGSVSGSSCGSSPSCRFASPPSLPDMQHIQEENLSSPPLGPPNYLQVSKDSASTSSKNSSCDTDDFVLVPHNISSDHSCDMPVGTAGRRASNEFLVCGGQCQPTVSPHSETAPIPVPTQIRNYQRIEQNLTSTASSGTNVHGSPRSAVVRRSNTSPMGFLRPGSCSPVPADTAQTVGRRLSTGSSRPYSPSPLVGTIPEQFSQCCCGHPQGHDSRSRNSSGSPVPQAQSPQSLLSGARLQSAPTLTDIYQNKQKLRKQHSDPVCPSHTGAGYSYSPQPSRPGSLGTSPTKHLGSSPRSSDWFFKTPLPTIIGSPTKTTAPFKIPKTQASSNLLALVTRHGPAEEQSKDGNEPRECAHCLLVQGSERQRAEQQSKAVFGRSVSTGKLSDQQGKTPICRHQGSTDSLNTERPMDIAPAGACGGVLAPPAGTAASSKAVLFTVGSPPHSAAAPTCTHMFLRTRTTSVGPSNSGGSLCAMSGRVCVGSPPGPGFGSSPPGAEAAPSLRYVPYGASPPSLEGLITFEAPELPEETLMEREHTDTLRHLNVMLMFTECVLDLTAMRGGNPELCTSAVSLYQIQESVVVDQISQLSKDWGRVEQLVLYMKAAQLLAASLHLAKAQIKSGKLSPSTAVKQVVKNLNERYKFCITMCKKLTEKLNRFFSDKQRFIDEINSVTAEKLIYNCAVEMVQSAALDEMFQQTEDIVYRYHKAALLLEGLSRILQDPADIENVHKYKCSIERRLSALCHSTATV
LRRK2: Leucine-rich repeat serine/threonine-protein kinase 2 (LRRK2, Homo sapiens, UniProt Q5S007)
Chain of UniProt Q5S007 (whole entry, looked up): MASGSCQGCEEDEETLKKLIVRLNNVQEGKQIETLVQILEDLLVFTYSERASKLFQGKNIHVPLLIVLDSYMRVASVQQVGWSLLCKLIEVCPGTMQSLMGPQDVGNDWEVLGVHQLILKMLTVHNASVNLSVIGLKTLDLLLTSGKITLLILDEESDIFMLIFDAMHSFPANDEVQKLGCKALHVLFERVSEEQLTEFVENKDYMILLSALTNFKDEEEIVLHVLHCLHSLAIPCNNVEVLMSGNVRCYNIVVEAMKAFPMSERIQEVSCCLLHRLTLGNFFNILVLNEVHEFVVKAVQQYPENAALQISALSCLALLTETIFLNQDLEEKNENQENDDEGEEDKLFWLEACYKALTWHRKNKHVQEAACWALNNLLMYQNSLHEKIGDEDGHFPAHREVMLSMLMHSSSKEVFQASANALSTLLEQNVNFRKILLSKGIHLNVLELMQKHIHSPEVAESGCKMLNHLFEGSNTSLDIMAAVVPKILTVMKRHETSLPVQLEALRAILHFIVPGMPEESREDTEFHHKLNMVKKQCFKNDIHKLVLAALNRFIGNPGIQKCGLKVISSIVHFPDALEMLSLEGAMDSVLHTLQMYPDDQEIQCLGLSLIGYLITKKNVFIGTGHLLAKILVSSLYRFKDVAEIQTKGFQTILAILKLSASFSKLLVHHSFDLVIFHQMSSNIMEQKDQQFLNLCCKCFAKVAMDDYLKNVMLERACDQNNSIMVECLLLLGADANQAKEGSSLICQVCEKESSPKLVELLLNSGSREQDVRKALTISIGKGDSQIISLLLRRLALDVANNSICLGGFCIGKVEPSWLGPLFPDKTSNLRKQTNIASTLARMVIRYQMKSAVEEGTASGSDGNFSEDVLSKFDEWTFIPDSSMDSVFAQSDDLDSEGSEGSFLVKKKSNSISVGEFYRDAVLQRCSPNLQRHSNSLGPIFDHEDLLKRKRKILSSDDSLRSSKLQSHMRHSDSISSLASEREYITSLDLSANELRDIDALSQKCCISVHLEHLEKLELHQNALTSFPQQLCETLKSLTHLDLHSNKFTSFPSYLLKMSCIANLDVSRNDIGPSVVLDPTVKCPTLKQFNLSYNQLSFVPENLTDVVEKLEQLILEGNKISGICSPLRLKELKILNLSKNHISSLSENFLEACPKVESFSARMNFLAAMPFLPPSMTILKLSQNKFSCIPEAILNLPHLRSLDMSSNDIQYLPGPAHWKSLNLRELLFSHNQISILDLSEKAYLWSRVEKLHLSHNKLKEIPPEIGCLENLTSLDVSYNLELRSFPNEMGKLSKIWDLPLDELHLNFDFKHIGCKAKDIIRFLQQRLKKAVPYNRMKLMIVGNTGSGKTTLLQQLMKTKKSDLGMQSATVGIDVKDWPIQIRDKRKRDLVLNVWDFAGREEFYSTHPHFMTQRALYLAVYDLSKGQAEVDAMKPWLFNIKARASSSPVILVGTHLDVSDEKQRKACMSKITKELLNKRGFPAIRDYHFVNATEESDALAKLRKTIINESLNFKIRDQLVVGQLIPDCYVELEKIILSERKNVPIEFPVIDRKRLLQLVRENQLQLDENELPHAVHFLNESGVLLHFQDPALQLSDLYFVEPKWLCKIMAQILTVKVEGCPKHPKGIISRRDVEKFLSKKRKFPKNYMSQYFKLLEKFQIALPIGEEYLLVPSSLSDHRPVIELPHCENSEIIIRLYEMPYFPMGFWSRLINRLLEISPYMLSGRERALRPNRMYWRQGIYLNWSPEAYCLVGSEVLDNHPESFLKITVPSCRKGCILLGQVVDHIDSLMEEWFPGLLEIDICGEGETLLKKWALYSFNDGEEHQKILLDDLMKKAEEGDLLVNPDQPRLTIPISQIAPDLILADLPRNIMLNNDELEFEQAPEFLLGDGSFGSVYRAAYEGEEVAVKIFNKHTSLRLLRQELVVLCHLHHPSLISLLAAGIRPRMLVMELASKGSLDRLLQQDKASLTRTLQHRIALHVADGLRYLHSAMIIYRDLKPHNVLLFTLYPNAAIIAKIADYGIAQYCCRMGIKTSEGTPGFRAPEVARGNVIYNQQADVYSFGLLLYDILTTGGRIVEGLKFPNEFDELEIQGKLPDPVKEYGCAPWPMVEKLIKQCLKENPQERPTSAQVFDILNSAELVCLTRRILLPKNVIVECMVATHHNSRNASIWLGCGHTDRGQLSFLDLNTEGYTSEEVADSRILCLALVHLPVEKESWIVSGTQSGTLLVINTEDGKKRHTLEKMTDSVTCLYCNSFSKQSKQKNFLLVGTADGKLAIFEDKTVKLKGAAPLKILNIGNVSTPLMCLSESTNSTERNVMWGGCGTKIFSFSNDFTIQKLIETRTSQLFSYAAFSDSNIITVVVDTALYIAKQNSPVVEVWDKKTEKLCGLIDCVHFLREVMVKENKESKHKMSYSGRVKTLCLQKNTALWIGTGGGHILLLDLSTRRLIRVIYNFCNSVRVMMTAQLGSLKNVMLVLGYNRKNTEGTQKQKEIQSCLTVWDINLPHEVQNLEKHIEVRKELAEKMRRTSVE
Chain of UniProt P07948 (whole entry, looked up): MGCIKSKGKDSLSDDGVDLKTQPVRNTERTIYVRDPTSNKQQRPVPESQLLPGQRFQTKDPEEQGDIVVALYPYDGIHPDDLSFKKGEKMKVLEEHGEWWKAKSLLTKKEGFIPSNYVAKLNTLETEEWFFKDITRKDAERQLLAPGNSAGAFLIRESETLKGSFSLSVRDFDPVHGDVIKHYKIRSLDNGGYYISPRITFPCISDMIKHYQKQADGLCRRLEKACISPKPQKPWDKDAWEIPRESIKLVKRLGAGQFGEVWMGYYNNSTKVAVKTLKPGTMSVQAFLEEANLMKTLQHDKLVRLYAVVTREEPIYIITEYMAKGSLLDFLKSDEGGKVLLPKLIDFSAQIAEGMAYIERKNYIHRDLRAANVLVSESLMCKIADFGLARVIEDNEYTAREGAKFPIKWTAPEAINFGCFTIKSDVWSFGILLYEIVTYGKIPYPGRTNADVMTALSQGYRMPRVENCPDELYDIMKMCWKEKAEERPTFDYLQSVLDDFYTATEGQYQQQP
Chain of UniProt Q9Z1M0 (whole entry, unmodified, looked up): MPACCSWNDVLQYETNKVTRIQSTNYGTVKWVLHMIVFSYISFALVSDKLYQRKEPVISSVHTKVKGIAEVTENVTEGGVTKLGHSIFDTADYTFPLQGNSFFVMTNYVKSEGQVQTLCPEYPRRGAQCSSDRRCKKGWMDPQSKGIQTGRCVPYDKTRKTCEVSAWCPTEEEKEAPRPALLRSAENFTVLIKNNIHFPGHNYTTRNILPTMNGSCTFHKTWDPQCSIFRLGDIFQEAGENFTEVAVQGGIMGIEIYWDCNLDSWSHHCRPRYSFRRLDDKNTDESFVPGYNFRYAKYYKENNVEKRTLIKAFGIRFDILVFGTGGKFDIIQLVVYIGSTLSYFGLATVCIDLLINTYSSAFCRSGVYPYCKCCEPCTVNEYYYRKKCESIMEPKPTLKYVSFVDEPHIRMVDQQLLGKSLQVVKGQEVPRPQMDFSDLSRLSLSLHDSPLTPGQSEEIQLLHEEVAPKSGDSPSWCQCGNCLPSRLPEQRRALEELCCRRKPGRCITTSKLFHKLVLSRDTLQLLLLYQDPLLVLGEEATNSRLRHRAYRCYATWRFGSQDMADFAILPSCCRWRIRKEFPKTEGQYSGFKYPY
Chain of UniProt Q6J9G0 (whole entry, looked up): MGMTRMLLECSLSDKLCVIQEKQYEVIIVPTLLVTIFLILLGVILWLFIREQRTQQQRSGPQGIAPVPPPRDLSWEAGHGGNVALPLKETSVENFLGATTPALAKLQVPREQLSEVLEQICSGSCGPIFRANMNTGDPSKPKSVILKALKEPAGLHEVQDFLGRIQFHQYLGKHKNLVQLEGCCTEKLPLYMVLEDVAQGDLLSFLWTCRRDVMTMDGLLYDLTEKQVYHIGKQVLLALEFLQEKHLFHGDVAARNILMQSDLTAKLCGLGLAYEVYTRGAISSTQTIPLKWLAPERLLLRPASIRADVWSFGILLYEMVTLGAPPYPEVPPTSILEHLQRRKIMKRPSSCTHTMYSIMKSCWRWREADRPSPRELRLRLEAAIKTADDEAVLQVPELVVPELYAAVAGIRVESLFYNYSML

SMILES | target | assay | test system | conditions | how to read | remaining activity
COc1cc(Nc2ncc3c(n2)-c2ccc(Cl)cc2C(c2c(F)cccc2OC)=NC3)ccc1C(=O)O | BTK | kinase activity | – | 1 µM | – | 51%
CSc1ccc(CNS(=O)(=O)c2c(C)oc(C)c2C(=O)O)cc1C | malate dehydrogenase | enzyme activity, inhibitor | – | 200 µM, pH 7.0, 1% DMSO, aggregation counter-screen | – | 106%
Cc1cccc(C)c1C(=O)OCC(=O)[C@H](CCCCN)NC(=O)[C@H](CCCNC(=N)N)NC(=O)OCc1ccccc1 | Dipeptidyl peptidase 1 (Ctsc, Mus musculus, UniProt P97821) | inhibitor | – | 0.1 µM, with: AMC fluorogenic substrate | relative to: untreated | 100%
COc1cc(F)ccc1-c1ncnc(Nc2cccc(C[S@](C)(=N)=O)c2)n1 | ULK2 | kinase activity | – | 10 µM, with: 10 µM ATP | – | 95%
Cc1cc(Nc2cc(N3CCN(C)CC3)nc(Sc3ccc(NC(=O)C4CC4)cc3)n2)[nH]n1 | LRRK2 | kinase activity, KinaseProfiler | – | 0.03 µM, species human | relative to: control | 100%
COc1cc(-c2cncc3c2CN(C)Cc2cc(N4CCNCC4)ccc2-3)cc(OC)c1OC | ULK2 | kinase activity | – | 1 µM, human enzyme, with: ATP 10 µM | relative to: DMSO control | 102%
O=S(=O)(Nc1ccc(-c2ccco2)cc1F)c1cccc(Cl)c1O | malate dehydrogenase | enzyme activity, inhibitor | – | 200 µM, pH 7.0, 1% DMSO, aggregation counter-screen | – | 85%
NC/C(=C\F)COc1cccc(Cn2c(=S)[nH]c(=O)c3[nH]cnc32)c1 | Lactoperoxidase (LPO, Bos taurus, UniProt P80025) | H2O2 electrode | – | 20 µM | relative to: control | 14.8% and 20.1% and 7.82%
Cc1cncc(CC(=O)Nc2cccc(Cl)c2O)c1 | malate dehydrogenase | enzyme activity, inhibitor | – | 200 µM, pH 7.0, 1% DMSO, aggregation counter-screen | – | 75%
CNc1ncc2c(/C=C/C(=O)N3CCC(OC)CC3)nn(Cc3cccc(C(F)(F)F)c3)c2n1 | LRRK2 | kinase activity, inhibitor | – | 1 µM | relative to: untreated control | 58%
O=C(O)c1ccc(Nc2ncc3c(n2)-c2ccc(Cl)cc2C(c2c(F)cccc2F)=NC3)cc1 | EphB2(h) | kinase activity | – | 1 µM | – | 69%
COc1ccc(F)cc1C(=O)NCc1ccc(-c2nn([C@@H](C)C(F)(F)F)c(N)c2C(N)=O)cc1 | Tyrosine-protein kinase Lyn (LYN, Homo sapiens, UniProt P07948) | kinase activity, inhibitor, HotSpot radiometric | – | 1000 nM, with: ATP at Km | – | 77.1 ± 2.6%
Cc1ccc(NS(=O)(=O)c2ccc(F)cc2O)cc1N1CCOC1=O | malate dehydrogenase | enzyme activity, inhibitor | – | 200 µM, pH 7.0, 1% DMSO, aggregation counter-screen | – | 99%
Cc1cc(NC(=O)c2cccc(NC(=O)/C=C/CN(C)C)c2)ccc1Nc1nccc(-c2cccnc2)n1 | Mitogen-activated protein kinase 8, phosphorylated (MAPK8, Homo sapiens, UniProt P45983) | enzyme activity after dialysis, inhibitor | – | 10 µM, 1 days, unit not given | relative to: no inhibitor | 0.031
C=CC[C@@H]1c2ccc(OC)c(OC)c2CN2CCc3cc4c(cc3[C@H]12)OCO4 | P2X purinoceptor 7 (P2rx7, Mus musculus, UniProt Q9Z1M0) | ATP-evoked current, inhibitor, whole-cell patch clamp | HEK293 transfected | 30 µM | – | 94.3%
O=S(=O)(NC1(CC(F)(F)F)CC1)c1cccc(Cl)c1O | malate dehydrogenase | enzyme activity, inhibitor | – | 200 µM, pH 7.0, 1% DMSO, aggregation counter-screen | – | 179%
C=CC(=O)N1CCC[C@@H](n2nc(-c3ccc(Oc4ccccc4)cc3)c3c(N)ncnc32)C1 | Tyrosine-protein kinase STYK1 (STYK1, Homo sapiens, UniProt Q6J9G0) | – | – | 0.1 µM | – | 239%
Cn1ncc(S(=O)(=O)NC(c2ccc(Cl)cc2)c2cccc(Cl)c2)c1C(=O)O (stereo not shown) | malate dehydrogenase | enzyme activity, inhibitor | – | 200 µM, pH 7.0, 1% DMSO, aggregation counter-screen | – | 89%
O=C(NC1CCC1)c1ccc2nc(-c3cccc(NS(=O)(=O)NCCN4CCCCC4)c3)cn2c1 | Megakaryocyte-associated tyrosine-protein kinase (MATK, Homo sapiens, UniProt P42679) | enzyme activity | – | 10 µM | – | 89%
